Assay results collected from several papers.
Lines come from different studies, so protocols differ. Numbers after ± are the reported error.
Cell line: A2780

Cc1cc(C)c(N2CCN(c3c(C)cc(C)cc3C)C2=[Se])c(C)c1.[Cl][Au] — IC50 (cell growth or viability, MTT; 72 h): 0.7 µM
N.N.O=C([O][Pt]([Cl])([Cl])[O]C(=O)c1ccc(P(c2ccccc2)c2ccccc2)cc1)c1ccc(P(c2ccccc2)c2ccccc2)cc1.[Cl][Au].[Cl][Au] — IC50 (cell growth or viability, resazurin; 72 h): 3.45 µM
Cc1ccnc(-c2cc(C)ccn2)c1.[C-]#[O+].[C-]#[O+].[C-]#[O+].[Re+] — IC50 (cell viability): 3.5 ± 2.8 µM
CC1(C)OB(c2ccc(COC(=O)N(Cc3cccc(CN4CCCCC4)c3)[c-]3cccc3)cc2)OC1(C)C.[Fe+2].c1cc[cH-]c1 — IC50 (cell growth or viability, MTT; 48 h): 5.6 µM
Cc1cc(C)c(-n2ccn(-c3c(C)cc(C)cc3C)c2=[Se])c(C)c1.[Cl][Ag] — IC50 (cell growth or viability, MTT; 72 h): 0.4 µM
COC(=O)CC[C@@H](NC(=O)[C@@H](Cc1ccc(OP(=O)(O)O)cc1)NC(=O)[C@@H](Cc1ccccc1)NC(=O)[C@@H](Cc1ccccc1)NC(=O)Cc1ccc2ccccc2c1)C(=O)OC — IC50 (cell growth or viability): > 200 µM
[N]#[Os]([Cl])([Cl])[Cl].c1ccc(-c2ccnc3c2ccc2c(-c4ccccc4)ccnc23)cc1 — IC50 fold increase (cytotoxicity; added: salubrinal 10 µM; baseline: compound alone): 13.3 fold
NC1CCCCC1N.O=C1[O][Pt]([O]C(=O)c2ccc(P(c3ccccc3)c3ccccc3)cc2)([O]C(=O)c2ccc(P(c3ccccc3)c3ccccc3)cc2)[O]C1=O.[Cl][Au].[Cl][Au] — IC50 (cell growth or viability, resazurin; 72 h): 9.65 µM
CC(C)C[C@@H](NC(=O)CCNc1ccc([N+](=O)[O-])c2nonc12)C(=O)N[C@H](CC(C)C)C(=O)N[C@H](CC(C)C)C(=O)N[C@H](CC(C)C)C(=O)N[C@H](Cc1ccc(OP(=O)(O)O)cc1)C(=O)O — viability (MTT; 200 µM, 24 h): > 60%
N.N.O=C([O][Pt]([OH])([Cl])[Cl])c1ccc(P(c2ccccc2)c2ccccc2)cc1.[Cl][Au] — IC50 (cell growth or viability, resazurin; 72 h): 4.58 µM
COc1ccnc(-c2cc(OC)ccn2)c1.[C-]#[O+].[C-]#[O+].[C-]#[O+].[Re+] — IC50 (cell viability): 2.2 ± 1.8 µM

A few entries again:
N.N.O=C([O][Pt]([OH])([Cl])[Cl])c1ccc(P(c2ccccc2)c2ccccc2)cc1.[Cl][Au] — IC50 (cell growth or viability, resazurin; 72 h): 4.58 µM
